Measurements from different studies.
Every numbered part comes from another study and shows a few of its results, in no order. Changes are numbered by the printed parent chain.

Set 1
Target: Histone acetyltransferase KAT6A, winged helix 2, GST fusion (KAT6A, Homo sapiens, UniProt Q92794, residues 85-181)
Technique: protein binding microarray
Form: double-stranded DNA, one strand shown
Medium: in vitro
Tested at: not given
Setting: 8-mer, flanks averaged, mean of 2 arrays, mostly near background
Baseline: not given
Direction: higher = stronger binding
Endpoint: E-score
Construct (chain): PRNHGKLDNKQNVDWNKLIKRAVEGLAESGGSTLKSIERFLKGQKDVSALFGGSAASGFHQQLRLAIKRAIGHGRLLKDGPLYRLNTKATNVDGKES
AAGGGAGT: -0.124
CTGACTCC: -0.18
AGCGGCGG: 0.288
ACTCCAAG: 0.00728
ACGAGCCC: 0.112
CAGTCCTA: -0.23
CATTAACA: -0.0896
ACTGACCT: -0.0588
ACGTCAGT: -0.103
TGAAGGCA: 0.0604
AACGTGAG: -0.042
GTTAAACA: 0.0141
ATGACAGA: -0.0787
ATCTATTC: -0.0861
CGTCCTGC: 0.034
AACTTCTC: -0.0625
CAGCCGGC: 0.201
GATGGGCA: 0.0511
CTTACTGC: -0.0597

Set 2
Target: CCND3, cyclin fold, Cln2 fusion (human)
Technique: yeast growth competition, sequencing
Medium: yeast
Setting: weak parent motif
Baseline: not given
Direction: higher = stronger binding
Endpoint: normalised enrichment score
Starting sequence: BRCA2 docking peptide (human); PSIKRNLLNEFDR; partner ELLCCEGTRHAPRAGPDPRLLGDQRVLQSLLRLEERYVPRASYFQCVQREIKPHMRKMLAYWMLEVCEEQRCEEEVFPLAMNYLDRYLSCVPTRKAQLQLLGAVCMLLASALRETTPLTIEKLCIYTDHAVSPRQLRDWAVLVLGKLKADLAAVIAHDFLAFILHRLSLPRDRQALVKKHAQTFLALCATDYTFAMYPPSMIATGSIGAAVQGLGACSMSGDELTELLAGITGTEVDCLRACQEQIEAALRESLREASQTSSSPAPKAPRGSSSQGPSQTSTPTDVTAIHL
N6E: 0.129
L7M: 0.109
P1H: 0.152
N9H: 0.0854
N6A: 0.0857
K4M: 0.171
N9R: 0.234
E10M: 0.0406
L8N: 0.0376
L8P: 0.0784
N6M: 0.0436
N9C: 0.063
N9F: -0.0178
D12L: 0.0202
D12T: 0.0802
L7G: 0.0702
S2E: 0.0643
N9M: 0.0139
L7C: 0.0818
R13Y: 0.163
S2A: 0.128
S2N: 0.0761
F11R: 0.122

Set 3
Target: Ras GTPase-activating protein-binding protein 1, full length (G3BP1, Homo sapiens, UniProt Q13283)
UniProt Q13283, sequence (whole entry, looked up): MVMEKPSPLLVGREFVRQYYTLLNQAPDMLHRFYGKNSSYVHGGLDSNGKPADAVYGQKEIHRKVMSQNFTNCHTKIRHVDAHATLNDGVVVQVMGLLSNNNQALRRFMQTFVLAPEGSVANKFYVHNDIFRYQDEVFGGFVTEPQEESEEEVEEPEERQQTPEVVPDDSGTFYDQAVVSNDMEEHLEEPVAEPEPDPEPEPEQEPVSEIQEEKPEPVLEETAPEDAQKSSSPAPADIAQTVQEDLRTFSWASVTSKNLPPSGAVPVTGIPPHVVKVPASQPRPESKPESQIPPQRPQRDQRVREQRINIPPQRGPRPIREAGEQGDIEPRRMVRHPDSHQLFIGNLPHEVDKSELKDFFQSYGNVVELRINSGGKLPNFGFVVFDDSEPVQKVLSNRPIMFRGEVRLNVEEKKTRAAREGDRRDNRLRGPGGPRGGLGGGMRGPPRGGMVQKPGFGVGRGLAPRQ
Technique: RNA Bind-n-Seq
Form: RNA
Medium: in vitro
Tested at: 200 nM
Setting: whole 134-nt RNA, ends assumed
Added: 150 mM KCl
Baseline: input library
Direction: higher = stronger binding
Endpoint: log2 enrichment
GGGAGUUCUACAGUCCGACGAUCGUCCUGUGCUACACAUCGUAUGUACCGAAUCAAAUUUUUAAACCCCCCCAAAUUUAAAAAAGUAUUAUGUUACGCCGUUCGGAUCUGCACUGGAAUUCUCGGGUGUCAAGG: 0.0643
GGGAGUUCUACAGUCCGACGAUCUCAAGUCCUGUGCUACACAUCGUAUGUACCGAAUCGGGUUUUUGGGUGGGUGGGAAAGUAUUAUGUUACGCCGUUCGGAUCUGCACUUCCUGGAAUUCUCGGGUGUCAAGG: 0.534
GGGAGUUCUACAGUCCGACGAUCGCAGGAAGUAAAAACAAAUGGAAAUGCUUCGGAUAGUGGCAGGGGUGGGGGUUGCUAAGGAAAAAAUGGGAUGGGAGUGGGUAAAGAGUUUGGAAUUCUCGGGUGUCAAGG: 0.888
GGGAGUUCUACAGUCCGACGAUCCACAGACAACACGCACCCACACAGACACAGAGGGAAGGGGUUGGGAUGGGGACAGGGUGCACAGCAGGGCAGGGUAGGACCCCAGCCCCUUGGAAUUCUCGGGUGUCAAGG: 2.01
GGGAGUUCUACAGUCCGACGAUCUCCUGUGCUACACAUCGUAUGUACCGAAUCAAAGUGUGUGUGUGUGUGUGUGUGUGAAAAAAGUAUUAUGUUACGCCGUUCGGAUCUGCAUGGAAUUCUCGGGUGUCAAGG: 0.963
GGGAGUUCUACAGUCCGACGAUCAGUCCUGUGCUACACAUCGUAUGUACCGAAUCGGGGAGGGGAAAAAGGGGAAAGGGGAAAGUAUUAUGUUACGCCGUUCGGAUCUGCACUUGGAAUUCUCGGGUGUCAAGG: 0.482
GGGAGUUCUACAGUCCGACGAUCAGUCCUGUGCUACACAUCGUAUGUACCGAAUCGGGUUUUUGGUUUUUGGUUUUUGGGGAAAGUAUUAUGUUACGCCGUUCGGAUCUGCACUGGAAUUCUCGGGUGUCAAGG: -1.16
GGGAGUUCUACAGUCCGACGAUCCUGUGCUACACAUCGUAUGUACCGAAUCGGGGAAAAAAAGGAAAAAAAGGGAAAAAAAGGGAAAGUAUUAUGUUACGCCGUUCGGAUCUGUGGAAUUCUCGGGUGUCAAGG: -0.742
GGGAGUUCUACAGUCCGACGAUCGUCCUGUGCUACACAUCGUAUGUACCGAAUCGGGUUUUUGGUUUUUGGGGUUUUUGGGAAAGUAUUAUGUUACGCCGUUCGGAUCUGCACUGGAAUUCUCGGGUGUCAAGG: -0.715
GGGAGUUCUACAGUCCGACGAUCUCCUGUGCUACACAUCGUAUGUACCGAAUCGGUUUUUUGGUUUUUUGGGUUUUUUGGGGAAAGUAUUAUGUUACGCCGUUCGGAUCUGCAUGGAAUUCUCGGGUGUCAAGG: -0.803
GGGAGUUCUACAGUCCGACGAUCUGGGAGGUGGAUUUUGUUUAUUUUUUUAGCUCAUUUCCAGGGCUGGGAAUUUUUUUUUAAUAUGUGUCAUGAAUAAAGUUGUUUUUGAAAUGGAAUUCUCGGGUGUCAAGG: -0.579
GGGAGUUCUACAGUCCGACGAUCCAAGUCCUGUGCUACACAUCGUAUGUACCGAAUCGGAAAAAGGUUUUUUUGGUGGAAAGUAUUAUGUUACGCCGUUCGGAUCUGCACUUCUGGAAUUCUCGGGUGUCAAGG: -1.28
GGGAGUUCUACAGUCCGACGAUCCUCAAGUCCUGUGCUACACAUCGUAUGUACCGAAUCGGGGCGGGGCGGGGCGGAAAGUAUUAUGUUACGCCGUUCGGAUCUGCACUUCCAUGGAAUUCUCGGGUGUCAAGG: 1.11
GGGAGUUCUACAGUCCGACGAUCUCAAGUCCUGUGCUACACAUCGUAUGUACCGAAUCGGGGAAAGGAAAGGGAAAGGAAAGUAUUAUGUUACGCCGUUCGGAUCUGCACUUCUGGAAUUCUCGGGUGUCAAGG: -0.625

Set 4
Target: PABPC1L2, full length, GST fusion (mouse, UniProt A0ABA7IW68)
Technique: RNAcompete
Form: RNA
Medium: in vitro
Tested at: 20 nM
Setting: 7-mer, probes averaged, single round
Baseline: mean of 7-mers
Direction: higher = stronger binding
Endpoint: 7-mer Z-score
Residues (chain): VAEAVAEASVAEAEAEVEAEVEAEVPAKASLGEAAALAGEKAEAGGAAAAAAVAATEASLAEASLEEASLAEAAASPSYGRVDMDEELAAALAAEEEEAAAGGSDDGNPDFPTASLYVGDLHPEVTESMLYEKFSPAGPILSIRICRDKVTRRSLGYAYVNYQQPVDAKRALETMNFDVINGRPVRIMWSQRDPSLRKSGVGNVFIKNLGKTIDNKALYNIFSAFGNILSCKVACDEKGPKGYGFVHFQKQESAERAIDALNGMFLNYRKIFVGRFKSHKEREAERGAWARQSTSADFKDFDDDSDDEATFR
GUCGCUU: -0.456
GAGCCCA: -0.228
CUAUAGA: -0.0192
GCGUACA: -0.0899
ACAGGUU: -0.00289
AAAAGAC: 5.59
GCAAGGC: 0.0406
GGGAGGA: 0.39
UGUAUAA: 0.311
UAGUUUG: -0.452
CAUGUGU: -0.277
UGACGUG: -0.128
CCACCGG: -0.153
AUGUUAG: -0.141
ACCAUUU: -0.132
AGCUGGC: -0.0264
GGCACUG: 0.0732
AACUAUC: -0.0826
GAUCUGC: -0.271
CUUUCAA: -0.05
GUAUAAG: 0.0261
UGUGUCG: -0.373
GGCAUAU: 0.00798
AAUCGUA: -0.00652
GGCCUUU: -0.327

Set 5
Target: ABI1, truncated, D143A, DHFR fusion (Arabidopsis thaliana)
Technique: DHFR PCA, deep sequencing
Medium: yeast
Setting: methotrexate growth selection, single substitutions
Added: (+)-ABA 1.4 µM
Baseline: wild-type fitted maximum
Direction: higher = stronger binding
Endpoint: relative binding score
Starting sequence: PYL1, truncated, DHFR fusion (Arabidopsis thaliana); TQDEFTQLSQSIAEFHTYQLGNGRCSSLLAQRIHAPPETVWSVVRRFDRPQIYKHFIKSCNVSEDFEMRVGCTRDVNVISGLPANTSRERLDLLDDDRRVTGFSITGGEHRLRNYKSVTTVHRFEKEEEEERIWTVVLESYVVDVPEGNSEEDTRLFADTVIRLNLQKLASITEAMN
T160R: -0.667%
R69F: 14.5%
N77M: 60.8%
C72N: 23%
L156I: 30.9%
D75W: 62.6%
K54G: -3.58%
T39S: 35%
R99F: 87%
R45C: -0.327%
F157I: 0.565%
G23Y: 12.7%
I52R: 36.1%
N85P: 0.412%
I133V: 78.5%
S27H: 44%
E14F: -18.6%
T119W: -9.11%
N149R: 11.9%
D153S: -5.36%
L20K: 53.3%
D3R: 41.4%
Q51I: -7.36%
V78R: 16%
A13G: 33.3%

Set 6
Target: CREM, bZIP domain (human)
Technique: DHFR protein complementation
Medium: yeast
Setting: single substitutions, most at no-binding floor
Baseline: wild-type JUN-FOS pair
Direction: higher = stronger binding
Endpoint: binding fitness
Starting sequence: JUN, bZIP domain (human); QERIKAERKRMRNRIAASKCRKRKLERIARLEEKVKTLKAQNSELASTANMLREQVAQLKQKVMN; partner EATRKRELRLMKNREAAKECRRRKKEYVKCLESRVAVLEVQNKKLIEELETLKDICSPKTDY
S43G: -1.39 natural log
Q41D: -1.66 natural log
A46G: -1.48 natural log
R30W: -1.51 natural log
A46V: -1.41 natural log
V56K: -1.49 natural log
L31D: -1.26 natural log
N42C: -1.57 natural log
T37N: -1.43 natural log
A46T: -1.39 natural log
E44P: -1.48 natural log
M51P: -1.56 natural log
A46Y: -1.31 natural log
S43A: -1.38 natural log
K39F: -1.51 natural log
S47N: -1.42 natural log
